Results of several laboratories.
Each line is one published result; not all experiments were run side by side. ± gives the spread as reported.
Sequence of UniProt Q8TDU6 (whole entry, looked up): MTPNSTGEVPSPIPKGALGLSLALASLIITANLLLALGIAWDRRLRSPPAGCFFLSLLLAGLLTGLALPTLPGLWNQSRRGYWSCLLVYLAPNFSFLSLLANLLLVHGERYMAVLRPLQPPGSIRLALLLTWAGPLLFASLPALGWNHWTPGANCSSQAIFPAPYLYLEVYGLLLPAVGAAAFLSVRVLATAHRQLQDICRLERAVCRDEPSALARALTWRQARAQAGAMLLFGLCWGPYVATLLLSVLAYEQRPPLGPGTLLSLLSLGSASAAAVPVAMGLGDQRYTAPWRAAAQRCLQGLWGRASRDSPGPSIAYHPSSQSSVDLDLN
Sequence of UniProt P29597 (whole entry, looked up): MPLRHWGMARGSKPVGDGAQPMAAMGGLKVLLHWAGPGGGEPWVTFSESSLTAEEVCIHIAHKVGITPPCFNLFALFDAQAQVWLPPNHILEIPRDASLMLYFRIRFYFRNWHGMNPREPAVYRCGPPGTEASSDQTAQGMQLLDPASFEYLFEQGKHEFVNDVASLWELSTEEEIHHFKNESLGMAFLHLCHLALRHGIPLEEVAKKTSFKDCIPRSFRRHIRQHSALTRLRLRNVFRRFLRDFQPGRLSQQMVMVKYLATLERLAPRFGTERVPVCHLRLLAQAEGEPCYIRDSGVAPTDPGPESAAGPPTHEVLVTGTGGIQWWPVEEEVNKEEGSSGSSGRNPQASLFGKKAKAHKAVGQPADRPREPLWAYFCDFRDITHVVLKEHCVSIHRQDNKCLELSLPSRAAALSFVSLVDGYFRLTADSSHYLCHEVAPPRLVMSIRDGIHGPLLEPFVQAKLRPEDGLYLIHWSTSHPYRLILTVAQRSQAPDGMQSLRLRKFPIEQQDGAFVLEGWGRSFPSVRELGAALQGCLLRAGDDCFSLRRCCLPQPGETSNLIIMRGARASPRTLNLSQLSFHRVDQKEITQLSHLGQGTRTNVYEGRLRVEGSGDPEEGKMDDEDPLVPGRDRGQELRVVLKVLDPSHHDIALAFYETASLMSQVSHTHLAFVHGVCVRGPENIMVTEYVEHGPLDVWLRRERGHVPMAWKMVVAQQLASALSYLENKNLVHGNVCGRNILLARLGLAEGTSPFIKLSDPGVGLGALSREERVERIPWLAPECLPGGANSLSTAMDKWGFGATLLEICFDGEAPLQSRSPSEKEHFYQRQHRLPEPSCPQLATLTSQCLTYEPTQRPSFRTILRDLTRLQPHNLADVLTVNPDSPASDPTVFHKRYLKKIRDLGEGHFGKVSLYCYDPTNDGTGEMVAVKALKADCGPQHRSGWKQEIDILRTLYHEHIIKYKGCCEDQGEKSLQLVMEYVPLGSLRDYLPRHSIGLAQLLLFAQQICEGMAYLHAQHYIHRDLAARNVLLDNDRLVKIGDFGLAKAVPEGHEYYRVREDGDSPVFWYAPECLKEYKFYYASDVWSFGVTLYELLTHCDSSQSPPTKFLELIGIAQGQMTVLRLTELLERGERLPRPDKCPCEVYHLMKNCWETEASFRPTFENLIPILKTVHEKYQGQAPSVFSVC
Sequence of UniProt P32247 (whole entry, looked up): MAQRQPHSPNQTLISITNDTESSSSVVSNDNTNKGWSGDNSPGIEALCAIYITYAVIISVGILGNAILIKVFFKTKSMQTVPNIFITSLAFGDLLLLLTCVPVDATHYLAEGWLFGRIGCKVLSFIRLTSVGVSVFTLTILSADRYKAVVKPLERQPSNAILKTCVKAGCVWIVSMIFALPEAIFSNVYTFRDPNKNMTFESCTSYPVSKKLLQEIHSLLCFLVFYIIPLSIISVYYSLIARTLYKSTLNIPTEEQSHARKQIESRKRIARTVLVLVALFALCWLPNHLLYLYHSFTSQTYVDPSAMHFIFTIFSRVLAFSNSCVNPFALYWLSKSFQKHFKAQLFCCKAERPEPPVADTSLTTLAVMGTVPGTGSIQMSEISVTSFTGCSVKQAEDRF

| SMILES | target or system | assay | system | setting | how to read | endpoint | result |
| --- | --- | --- | --- | --- | --- | --- | --- |
| COc1ccc(N2C(=O)N(c3c(C)cccc3Cl)Cc3cnc(Nc4ccc(C5CCN(C)CC5)cc4OC)nc32)nc1 | TYK2 (Homo sapiens, UniProt P29597) | kinase activity | – | 0.5 µM | – | inhibition | 8% |
| Cc1cn([C@H]2C[C@H](N=[N+]=[N-])[C@@H](CO)O2)c(=O)[nH]c1=O | HIV-1 | MTT | MT4, RT A98G/V106I/V179D/Y181C/G333E mutant | – | baseline: CC50 over EC50 | selectivity index | > 153 |
| Fc1ccc(C2=CCNCC2)cc1 | Salmonella typhimurium | SOS/umu test | TA1535/pSK1002 | 1 mg/mL, 4 h, without S9, full range | – | survival | 82.1% |
| [Cl-].[Cl-].[Pt+2].[Ru+2].c1ccc(-c2nc3cc4ccccc4cc3nc2-c2ccccn2)nc1.c1cnc2c(c1)ccc1cccnc12.c1cnc2c(c1)ccc1cccnc12 | Danio rerio | – | embryos | 15 µM, 96 h | – | hatching rate | 70 ± 7.1% |
| CC[C@H](C)[C@@H]1NC(=O)[C@@H]2CCCN2C(=O)[C@H](CC(C)C)NC(=O)[C@H](CC(C)C)NC(=O)CNC(=O)[C@@H](NC(=O)[C@@H](NC(=O)[C@H](CC(=O)O)NC(=O)CNC(=O)[C@@H](NC(=O)[C@H](C)NC(=O)CNC(=O)[C@H](CCCCN)NC(=O)[C@H](CC(C)C)NC(=O)[C@H](CC(C)C)NC(=O)[C@H](CCCCN)NC(=O)CNC(=O)[C@@H](NC(=O)[C@@H](N)CC(C)C)C(C)C)C(C)C)C(C)C)CSSC[C@@H](C(=O)O)NC1=O | – | RNA-seq, refers to: Plscr1 | mouse, traumatic brain injury model, frontal cortex and hippocampus | dose not given | baseline: TBI alone | log2 fold change | -2.07 |
| C[C@]1(CO)Cc2ncn(-c3ccc(C#N)c(Cl)c3)c2C(=O)O1 | – | – | human, plasma | 20 mg once daily, fasted | – | Cmax at steady state | 720 nM |
| C[C@H]1CN(c2n[nH]c3nc(N[C@H]4CC[C@H](NS(=O)(=O)CCC(F)(F)F)CC4)ncc23)CCO1 | Small ribosomal subunit protein uS3 (Homo sapiens, UniProt P23396) | Kinobeads competition, refers to: RPS3 | – | 0.8 µM, unit not given | baseline: vehicle | remaining binding | 1.19 |
| CN1CCCN(S(=O)(=O)c2ccc(-c3ccc4ncnc(Nc5ccc(OCc6cccc(F)c6)c(Cl)c5)c4c3)cc2)CC1 | Trypanosoma cruzi | – | NIH 3T3, 2% FBS medium | 96 h | baseline: NIH 3T3 TC50 over T. cruzi EC50 | selectivity ratio | 85.6 |
| Cc1cc(C(=O)NC(C)(C)COc2cccc3c2C(N)=NS(=O)(=O)N3)cc(C)n1 | Salmonella typhimurium | Ames test, initial | TA100 | 150 µg/plate | baseline: solvent control | revertant ratio | 1.2 |
| C[C@H]1C[C@@H](N2C(=N)N[C@](C)(c3cccc(Nc4ccc(C5CC5)nc4)c3Cl)CC2=O)CCO1 | Salmonella typhimurium, Escherichia coli | – | TA98, TA100, TA1535, TA97a, WP2 uvrA pKM101 | concentration not given, with and without S9 | – | mutagenicity | negative |
| O=[N+]([O-])c1ccc(NC2CCNCC2)c(C(F)(F)F)c1 | Salmonella typhimurium | SOS/umu test | TA1535/pSK1002 | 0.063 mg/mL, 4 h, without S9, full range | – | survival | 89% |
| CN1CCCN(S(=O)(=O)c2ccc(-c3ccc4nccc(Nc5ccc(OCc6cccc(F)c6)c(Cl)c5)c4c3)cc2)CC1 | Trypanosoma cruzi | – | NIH 3T3, 2% FBS medium | 96 h | baseline: NIH 3T3 TC50 over T. cruzi EC50 | selectivity ratio | 19 |
| COc1cc(Nc2ncc(F)c(Nc3ccc4c(n3)NC(=O)C(C)(C)O4)n2)cc(OC)c1OC | BRS3 (Homo sapiens, UniProt P32247) | – | – | – | – | IC50 | > 10 µM |
| [Cl-].[Cl-].[Pt+2].[Ru+2].c1ccc(-c2nccnc2-c2ccccn2)nc1.c1cnc2c(c1)ccc1cccnc12.c1cnc2c(c1)ccc1cccnc12 | Danio rerio | – | embryos | 90 µM, 72 h | – | survival rate | 36.7 ± 2% |
| CN1CCN(c2ccc(Nc3nccc(-c4ccncc4)n3)cc2C(F)(F)F)CC1 | Danio rerio | – | embryos | 5 µM, 5 days | – | toxicity | 30 ± 16% |
| O=C(NC(=O)c1ccccc1Cl)Nc1ccc(Cl)cc1 | Plutella xylostella | leaf dipping | – | 200 mg/L, 96 h | – | mortality | 66.2 ± 1.3% |
| CC[C@H](C)[C@H](NC(=O)[C@H](Cc1ccccc1)NC(=O)[C@H](CCC(=O)O)NC(=O)[C@H](CCCNC(=N)N)NC(=O)[C@H](C)NC(=O)[C@H](C)NC(=O)[C@H](CCC(N)=O)NC(=O)[C@H](CCC(=O)O)NC(=O)[C@H](CCC(=O)O)NC(=O)[C@H](CC(C)C)NC(=O)[C@H](Cc1ccc(O)cc1)NC(=O)[C@H](CO)NC(=O)[C@H](CO)NC(=O)[C@@H](NC(=O)[C@H](CC(=O)O)NC(=O)[C@H](CO)NC(=O)[C@@H](NC(=O)[C@H](Cc1ccccc1)NC(=O)[C@@H](NC(=O)CNC(=O)[C@H](CCC(=O)O)NC(=O)[C@H](C)NC(=O)CCc1c[nH]cn1)[C@@H](C)O)[C@@H](C)O)C(C)C)C(=O)N[C@@H](C)C(=O)N[C@@H](Cc1c[nH]c2ccccc12)C(=O)N[C@@H](CC(C)C)C(=O)N[C@H](C(=O)N[C@@H](CCCNC(=N)N)C(=O)NCC(=O)N[C@@H](CCCNC(=N)N)C(=O)N[C@@H](CCCCNC(=O)COCCOCCNC(=O)COCCOCCNC(=O)CC[C@H](NC(=O)CCCCCCCCCCCCCCCCC(=O)O)C(=O)O)C(=O)NCC(=O)NCC(=O)N[C@@H](CO)C(=O)N[C@@H](CCCCNc1c(NCCCCCN(O)C(=O)CCC(=O)NCCCCCN(O)C(=O)CCC(=O)NCCCCCN(O)C(C)=O)c(=O)c1=O)C(=O)O)C(C)C [zirconium-89 labelled] | – | – | rat, femur | intravenous, 3 nmol/kg, 24 h | – | tissue uptake | 0.15 %ID/g |

| SMILES | target or system | assay | system | setting | how to read | endpoint | result |
| --- | --- | --- | --- | --- | --- | --- | --- |
| COc1cc2c(Oc3ccc4[nH]c(C)cc4c3F)ccnc2cc1OCC1(N)CC1 | – | – | paediatric recurrent refractory sarcoma | 8 mg | – | grade 1 or 2 Anorexia | 0% |
| CN1CCN(c2cc(-c3ccncc3)c(-c3ccc4ccccc4c3)nn2)CC1 | GPBAR1 (Homo sapiens, UniProt Q8TDU6) | agonist, FLIPR | – | 12.5 µM | – | activation | 5.6% |
| COc1cccc(-c2n[nH]c(SCc3ccccn3)n2)c1OC | Escherichia coli | preincubation Ames test | WP2 uvrA | 2.0 mg per plate, with: rat liver S9 | – | revertant colonies per plate | 16 |
| CO[C@H]1C[C@@H]2CC[C@@H](C)[C@@](O)(O2)C(=O)C(=O)N2CCCC[C@H]2C(=O)O[C@H]([C@H](C)C[C@@H]2CC[C@@H](OC(=O)NCCOCCOCCOCCOCCOCCOCCOCCOCCC(=O)N3CCc4cc(Cn5nc(-c6ccc7oc(N)nc7c6)c6c(N)ncnc65)ccc4C3)[C@H](OC)C2)C[C@@H](O)[C@H](C)/C=C(\C)[C@@H](O)[C@@H](OC)C(=O)[C@H](C)C[C@H](C)/C=C/C=C/C=C/1C | – | phase 1 dose escalation | advanced solid tumour patients | intravenous, 8 mg weekly, grade ≥3 | – | any TRAE incidence | 31.3% |
| O=[N+]([O-])c1ccc(N2CCN(CCC(O)c3ccc(F)cc3)CC2)c(C(F)(F)F)c1 (stereo not shown) | Salmonella typhimurium | genotoxicity, SOS/umu test | TA1535/pSK1002 | 0.002 mg/mL, 4 h, with S9, full range | – | induction factor | 1.1 |
| CNC(=O)c1c(N(C)N=O)ncn1C | Salmonella typhimurium | mutagenicity, Ames plate incorporation | TA100 | 5000 µg/plate, without S9, methanol | – | revertant colonies per plate | 117 ± 9 |
| Cc1cc(C#N)cc(C)c1Oc1nc(Nc2ccc(C#N)cc2)nc(N)c1Br | HIV-1 | MTT | MT4, RT L100I/V179D/Y181C mutant | – | baseline: CC50 over EC50 | selectivity index | > 27 |
| CCc1ccc(CC/C=C/c2ccc3c(c2)C(=O)CC3)cc1 | – | – | Sprague-Dawley rat, male, serum | oral, 450 mg/kg/day, 14 days | – | total bilirubin | 1.03 µM |
| COCCN(CCOC)N=O | Salmonella typhimurium | mutagenicity, Ames plate incorporation | TA98 | 150 µg/plate, 3 d, without S9, methanol | – | revertant colonies per plate | 26.7 ± 4 |
| CC(=O)N1CCC(C(=O)N2CCN3C(=O)c4cc(-c5ccccc5)ccc4NC(=O)C3C2)CC1 (stereo not shown) | Escherichia coli | – | WP2 uvrA | 50 µg/plate, with rat liver S9 | – | revertants per plate | 42.5 |
| CC1(F)CN(C(=O)Cn2c(=O)c(C(=O)NCc3ccc(Cl)cc3)cc3nc(N4CCNC4=O)cnc32)C1 | human cytomegalovirus | plaque reduction | AD169 US3-6-EGFP | – | baseline: CC50 over EC50 | selectivity index | > 208 |
| OC(CCN1CC=C(c2ccc(F)cc2)CC1)c1ccc(F)c2ccccc12 (stereo not shown) | Salmonella typhimurium | genotoxicity, SOS/umu test | TA1535/pSK1002 | 0.063 mg/mL, 4 h, with S9, full range | – | induction factor | 1.1 |
| C[C@H](Cn1cnc2c(N)ncnc21)OCP(=O)(O)O | HIV-1 | – | – | no human serum albumin | baseline: CC50 over IC50 | therapeutic index | > 49 |
| [Cl-].[Cl-].[Pt+2].[Ru+2].c1ccc(-c2nc3ccccc3nc2-c2ccccn2)nc1.c1cnc2c(c1)ccc1cccnc12.c1cnc2c(c1)ccc1cccnc12 | Danio rerio | – | embryos | 75 µM, 48 h | – | survival rate | 63.3 ± 4.4% |
| CN1CCCN(S(=O)(=O)c2ccc(-c3ccc4ncc(C#N)c(Nc5ccc(OCc6ccccc6)c(Cl)c5)c4c3)cc2)CC1 | Trypanosoma cruzi | – | NIH 3T3, 2% FBS medium | 96 h | baseline: NIH 3T3 TC50 over T. cruzi EC50 | selectivity ratio | 12 |
| N#C[C@@]1(n2ccc(N)nc2=O)O[C@H](CO)[C@@H](O)[C@H]1O | Salmonella typhimurium | – | TA100 | 2.5 µM, without S9 | baseline: control | viability | 99% |
| C[C@@H](O)[C@@H](CO)NC(=O)[C@@H](CCCNC(=N)N)NC(=O)[C@@H]1CCCN1C(=O)[C@@H]1CSSC[C@H](NC(=O)[C@H](Cc2ccccc2)NC(=O)CN2CCN(CC(=O)O)CCN(CC(=O)O)CCN(CC(=O)O)CC2)C(=O)N[C@@H](Cc2ccc(O)cc2)C(=O)N[C@@H](Cc2ccccc2)C(=O)N[C@@H](CCC(N)=O)C(=O)N[C@@H](CC(N)=O)C(=O)N1 [gallium-68 labelled] | – | – | Wistar rat, brain | intravenous, 8 MBq, 30 min, group mean | – | tissue uptake | 0.04 %ID/g |

Some of these lines once more:
| SMILES | target or system | assay | system | setting | how to read | endpoint | result |
| --- | --- | --- | --- | --- | --- | --- | --- |
| C[C@H]1CN(c2n[nH]c3nc(N[C@H]4CC[C@H](NS(=O)(=O)CCC(F)(F)F)CC4)ncc23)CCO1 | Small ribosomal subunit protein uS3 (Homo sapiens, UniProt P23396) | Kinobeads competition, refers to: RPS3 | – | 0.8 µM, unit not given | baseline: vehicle | remaining binding | 1.19 |
| CN1CCCN(S(=O)(=O)c2ccc(-c3ccc4ncnc(Nc5ccc(OCc6cccc(F)c6)c(Cl)c5)c4c3)cc2)CC1 | Trypanosoma cruzi | – | NIH 3T3, 2% FBS medium | 96 h | baseline: NIH 3T3 TC50 over T. cruzi EC50 | selectivity ratio | 85.6 |
| Cc1cc(C(=O)NC(C)(C)COc2cccc3c2C(N)=NS(=O)(=O)N3)cc(C)n1 | Salmonella typhimurium | Ames test, initial | TA100 | 150 µg/plate | baseline: solvent control | revertant ratio | 1.2 |
| C[C@H]1C[C@@H](N2C(=N)N[C@](C)(c3cccc(Nc4ccc(C5CC5)nc4)c3Cl)CC2=O)CCO1 | Salmonella typhimurium, Escherichia coli | – | TA98, TA100, TA1535, TA97a, WP2 uvrA pKM101 | concentration not given, with and without S9 | – | mutagenicity | negative |
| O=[N+]([O-])c1ccc(NC2CCNCC2)c(C(F)(F)F)c1 | Salmonella typhimurium | SOS/umu test | TA1535/pSK1002 | 0.063 mg/mL, 4 h, without S9, full range | – | survival | 89% |
| CN1CCCN(S(=O)(=O)c2ccc(-c3ccc4nccc(Nc5ccc(OCc6cccc(F)c6)c(Cl)c5)c4c3)cc2)CC1 | Trypanosoma cruzi | – | NIH 3T3, 2% FBS medium | 96 h | baseline: NIH 3T3 TC50 over T. cruzi EC50 | selectivity ratio | 19 |
